# Results pooled from the literature.
# Lines come from different studies, so protocols differ. Values joined by “and” are separate records of one study, mostly repeats; a detail may differ. ± marks the error that the study gave.
# BCHE: Cholinesterase (BCHE, Homo sapiens, UniProt P06276)
# Chain of UniProt P06276 (whole entry, looked up): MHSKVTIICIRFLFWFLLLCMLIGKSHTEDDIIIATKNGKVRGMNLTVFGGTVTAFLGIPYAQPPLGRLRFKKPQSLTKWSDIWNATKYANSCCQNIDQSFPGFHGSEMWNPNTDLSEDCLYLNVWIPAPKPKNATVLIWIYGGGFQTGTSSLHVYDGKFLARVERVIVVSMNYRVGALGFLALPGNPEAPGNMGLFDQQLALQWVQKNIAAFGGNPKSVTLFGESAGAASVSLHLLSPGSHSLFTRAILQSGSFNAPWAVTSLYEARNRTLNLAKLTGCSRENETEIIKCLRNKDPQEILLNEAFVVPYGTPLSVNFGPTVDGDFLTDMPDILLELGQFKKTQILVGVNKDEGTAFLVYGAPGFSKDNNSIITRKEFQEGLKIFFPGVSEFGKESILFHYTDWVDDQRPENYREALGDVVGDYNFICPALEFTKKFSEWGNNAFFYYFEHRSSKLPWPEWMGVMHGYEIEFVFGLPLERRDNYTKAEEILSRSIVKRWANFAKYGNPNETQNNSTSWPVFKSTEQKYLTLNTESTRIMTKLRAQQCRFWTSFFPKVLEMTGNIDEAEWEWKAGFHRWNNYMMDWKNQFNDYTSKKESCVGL
# Chain of UniProt O95372 (whole entry, looked up): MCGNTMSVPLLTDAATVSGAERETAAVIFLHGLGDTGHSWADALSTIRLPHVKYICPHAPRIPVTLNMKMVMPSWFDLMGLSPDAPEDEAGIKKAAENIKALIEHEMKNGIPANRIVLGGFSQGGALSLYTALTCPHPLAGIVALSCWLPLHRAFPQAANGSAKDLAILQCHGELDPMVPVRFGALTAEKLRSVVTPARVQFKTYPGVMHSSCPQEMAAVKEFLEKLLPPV
# Chain of UniProt P22607 (whole entry, looked up): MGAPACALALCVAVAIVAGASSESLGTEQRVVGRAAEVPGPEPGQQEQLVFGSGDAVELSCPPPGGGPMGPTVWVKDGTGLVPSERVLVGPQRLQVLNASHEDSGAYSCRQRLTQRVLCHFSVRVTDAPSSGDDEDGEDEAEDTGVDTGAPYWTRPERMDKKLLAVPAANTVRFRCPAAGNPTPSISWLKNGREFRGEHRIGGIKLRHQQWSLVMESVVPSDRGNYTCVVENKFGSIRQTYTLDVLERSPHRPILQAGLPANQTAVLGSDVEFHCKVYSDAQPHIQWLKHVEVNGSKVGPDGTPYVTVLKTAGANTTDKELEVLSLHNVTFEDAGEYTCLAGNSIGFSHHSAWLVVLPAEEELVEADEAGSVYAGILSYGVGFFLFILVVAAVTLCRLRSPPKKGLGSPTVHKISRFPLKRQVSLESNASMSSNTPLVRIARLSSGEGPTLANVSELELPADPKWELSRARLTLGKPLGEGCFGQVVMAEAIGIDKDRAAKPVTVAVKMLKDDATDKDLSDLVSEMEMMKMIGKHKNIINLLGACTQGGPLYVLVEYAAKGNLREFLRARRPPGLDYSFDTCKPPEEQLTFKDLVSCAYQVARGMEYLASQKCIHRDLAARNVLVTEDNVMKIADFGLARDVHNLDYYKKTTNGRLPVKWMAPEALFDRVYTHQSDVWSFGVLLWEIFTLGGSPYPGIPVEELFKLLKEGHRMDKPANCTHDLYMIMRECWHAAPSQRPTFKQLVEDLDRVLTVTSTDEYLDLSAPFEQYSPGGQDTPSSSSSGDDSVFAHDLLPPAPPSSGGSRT
# Chain of UniProt P46663 (whole entry, looked up): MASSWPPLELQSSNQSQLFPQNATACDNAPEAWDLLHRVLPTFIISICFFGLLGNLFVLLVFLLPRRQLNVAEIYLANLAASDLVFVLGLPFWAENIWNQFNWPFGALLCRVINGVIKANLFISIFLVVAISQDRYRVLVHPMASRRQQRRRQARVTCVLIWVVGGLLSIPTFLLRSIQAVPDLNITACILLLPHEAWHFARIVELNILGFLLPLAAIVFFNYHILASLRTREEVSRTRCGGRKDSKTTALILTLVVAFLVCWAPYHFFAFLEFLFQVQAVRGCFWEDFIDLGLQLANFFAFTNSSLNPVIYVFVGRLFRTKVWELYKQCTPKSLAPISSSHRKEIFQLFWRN
# Chain of UniProt P35408 (whole entry, looked up): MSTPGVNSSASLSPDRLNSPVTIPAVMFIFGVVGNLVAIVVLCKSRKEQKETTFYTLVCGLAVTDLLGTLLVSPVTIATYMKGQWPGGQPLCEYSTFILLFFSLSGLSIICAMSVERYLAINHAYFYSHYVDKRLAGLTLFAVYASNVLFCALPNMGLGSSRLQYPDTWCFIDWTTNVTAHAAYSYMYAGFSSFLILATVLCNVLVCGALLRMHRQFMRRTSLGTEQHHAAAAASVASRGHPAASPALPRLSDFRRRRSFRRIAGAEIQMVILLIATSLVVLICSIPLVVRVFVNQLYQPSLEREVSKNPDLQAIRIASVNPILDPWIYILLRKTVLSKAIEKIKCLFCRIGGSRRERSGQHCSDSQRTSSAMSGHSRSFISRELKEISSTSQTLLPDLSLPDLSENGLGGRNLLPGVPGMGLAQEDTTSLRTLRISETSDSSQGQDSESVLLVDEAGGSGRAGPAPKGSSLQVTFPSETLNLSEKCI
# Chain of UniProt Q96P66 (whole entry, looked up): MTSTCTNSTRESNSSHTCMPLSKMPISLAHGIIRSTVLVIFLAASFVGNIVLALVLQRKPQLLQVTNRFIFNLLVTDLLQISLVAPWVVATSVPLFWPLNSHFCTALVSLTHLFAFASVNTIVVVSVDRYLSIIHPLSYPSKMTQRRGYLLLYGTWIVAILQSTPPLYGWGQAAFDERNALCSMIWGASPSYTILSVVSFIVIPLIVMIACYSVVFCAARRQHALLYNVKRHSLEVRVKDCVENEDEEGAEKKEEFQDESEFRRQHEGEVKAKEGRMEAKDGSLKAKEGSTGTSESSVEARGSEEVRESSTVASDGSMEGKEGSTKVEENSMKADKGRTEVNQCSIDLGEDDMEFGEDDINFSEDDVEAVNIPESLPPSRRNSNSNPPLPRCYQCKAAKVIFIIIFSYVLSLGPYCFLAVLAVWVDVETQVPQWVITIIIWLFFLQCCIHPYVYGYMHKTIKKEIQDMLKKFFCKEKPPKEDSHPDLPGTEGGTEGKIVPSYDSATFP
# Chain of UniProt P14416 (whole entry, looked up): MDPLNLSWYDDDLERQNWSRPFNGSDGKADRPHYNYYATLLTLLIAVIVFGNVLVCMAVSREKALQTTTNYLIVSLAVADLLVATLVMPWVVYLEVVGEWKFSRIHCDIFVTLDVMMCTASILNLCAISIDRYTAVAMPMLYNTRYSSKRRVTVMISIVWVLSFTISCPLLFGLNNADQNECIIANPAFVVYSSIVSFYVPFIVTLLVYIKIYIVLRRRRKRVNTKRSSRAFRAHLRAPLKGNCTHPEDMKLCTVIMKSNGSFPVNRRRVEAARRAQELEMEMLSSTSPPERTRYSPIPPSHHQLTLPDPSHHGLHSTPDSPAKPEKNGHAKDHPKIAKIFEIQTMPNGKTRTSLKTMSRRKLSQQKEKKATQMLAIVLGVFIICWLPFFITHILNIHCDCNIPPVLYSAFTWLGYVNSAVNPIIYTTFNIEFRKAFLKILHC
Structure (SMILES),target or system,assay,test system,setting,scale,endpoint,result
CN[C@]1(c2ccccc2Cl)CCCCC1=O,"D(2) dopamine receptor, short isoform (DRD2, Homo sapiens, UniProt P14416)","radioligand binding, agonist, radioligand displacement",,30 µM,,inhibition,-12%
CCCN(CCC)CCc1c[nH]c2ccccc12.Cl,BCHE,,,"concentration not given, Triton",,efficacy,-83.2 ± 2.46%
O=C(Nc1cccnn1)N1CCC(=Cc2cccc(Oc3ccc(C(F)(F)F)cn3)c2)CC1,"glycine transporter, rat",binding,,"10 µM, with: [3H]glycine",,inhibition,30%
C[C@@H](C1=C(CCN(C)C)Cc2ccccc21)c1ccccn1.O=C(O)/C=C\C(=O)O,BCHE,"inhibitor, fluorescence",,,,efficacy,-83.8 ± 8.6%
COc1cc(Nc2ncc(F)c(Nc3ccc4c(n3)NC(=O)C(C)(C)O4)n2)cc(OC)c1OC,BCHE,,,butyryl,,IC50,> 10 µM
COc1ccc(N2C(=O)N(c3c(C)cccc3Cl)Cc3cnc(Nc4ccc(C5CCN(C)CC5)cc4OC)nc32)nc1,"Fibroblast growth factor receptor 3 (FGFR3, Homo sapiens, UniProt P22607)",kinase activity,,0.5 µM,,inhibition,30%
CC[C@H](C)[C@H](NC(=O)[C@H](Cc1ccccc1)NC(=O)[C@H](CCC(=O)O)NC(=O)[C@H](CCCNC(=N)N)NC(=O)[C@H](C)NC(=O)[C@H](C)NC(=O)[C@H](CCC(N)=O)NC(=O)[C@H](CCC(=O)O)NC(=O)[C@H](CCC(=O)O)NC(=O)[C@H](CC(C)C)NC(=O)[C@H](Cc1ccc(O)cc1)NC(=O)[C@H](CO)NC(=O)[C@H](CO)NC(=O)[C@@H](NC(=O)[C@H](CC(=O)O)NC(=O)[C@H](CO)NC(=O)[C@@H](NC(=O)[C@H](Cc1ccccc1)NC(=O)[C@@H](NC(=O)CNC(=O)[C@H](CCC(=O)O)NC(=O)[C@H](C)NC(=O)CCc1c[nH]cn1)[C@@H](C)O)[C@@H](C)O)C(C)C)C(=O)N[C@@H](C)C(=O)N[C@@H](Cc1c[nH]c2ccccc12)C(=O)N[C@@H](CC(C)C)C(=O)N[C@H](C(=O)N[C@@H](CCCNC(=N)N)C(=O)NCC(=O)N[C@@H](CCCNC(=N)N)C(=O)N[C@@H](CCCCNC(=O)COCCOCCNC(=O)COCCOCCNC(=O)CC[C@H](NC(=O)CCCCCCCCCCCCCCCCC(=O)O)C(=O)O)C(=O)NCC(=O)NCC(=O)N[C@@H](CO)C(=O)N[C@@H](CCCCNc1c(NCCCCCN(O)C(=O)CCC(=O)NCCCCCN(O)C(=O)CCC(=O)NCCCCCN(O)C(C)=O)c(=O)c1=O)C(=O)O)C(C)C [zirconium-89 labelled],,gamma counting,"rat, skin of neck","intravenous, 3 nmol/kg, 24 h",,tissue uptake,0.31 %ID/g
C[C@@H](O)[C@@H](CO)NC(=O)[C@@H](CCCNC(=N)N)NC(=O)[C@@H]1CCCN1C(=O)[C@@H]1CSSC[C@H](NC(=O)[C@H](Cc2ccccc2)NC(=O)CN2CCN(CC(=O)O)CCN(CC(=O)O)CCN(CC(=O)O)CC2)C(=O)N[C@@H](Cc2ccc(O)cc2)C(=O)N[C@@H](Cc2ccccc2)C(=O)N[C@@H](CCC(N)=O)C(=O)N[C@@H](CC(N)=O)C(=O)N1 [gallium-68 labelled],,,"Wistar rat, adrenals","intravenous, 8 MBq, 30 min, group mean",,tissue uptake,0.45 %ID/g
Oc1ccc2c3c1O[C@H]1[C@@H](O)CC[C@@]4(O)[C@@H](C2)N(CC2CCC2)CC[C@]314,"GPR101 (Homo sapiens, UniProt Q96P66)","β-arrestin recruitment, TANGO luminescence",,concentration not given,baseline: basal luminescence,log2 fold change,0.083
CC[C@H](C)[C@@H]1NC(=O)[C@@H]2CCCN2C(=O)[C@H](CC(C)C)NC(=O)[C@H](CC(C)C)NC(=O)CNC(=O)[C@@H](NC(=O)[C@@H](NC(=O)[C@H](CC(=O)O)NC(=O)CNC(=O)[C@@H](NC(=O)[C@H](C)NC(=O)CNC(=O)[C@H](CCCCN)NC(=O)[C@H](CC(C)C)NC(=O)[C@H](CC(C)C)NC(=O)[C@H](CCCCN)NC(=O)CNC(=O)[C@@H](NC(=O)[C@@H](N)CC(C)C)C(C)C)C(C)C)C(C)C)CSSC[C@@H](C(=O)O)NC1=O,,"RNA-seq, item: Snx20","mouse, traumatic brain injury model, frontal cortex and hippocampus",dose not given,baseline: TBI alone,log2 fold change,-2.36
CN(C(=O)n1cnc(-c2ccc[n+]([O-])c2)c1)C1CCCCC1,"Prostaglandin E2 receptor EP4 subtype (PTGER4, Homo sapiens, UniProt P35408)","binding, item: EP4",,"50 µM, human, with: [3H]prostaglandin E2",,inhibition,4%
C[C@H]1CN(c2n[nH]c3nc(N[C@H]4CC[C@H](NS(=O)(=O)CCC(F)(F)F)CC4)ncc23)CCO1,"Putative ribosomal protein uL10-like (RPLP0P6, Homo sapiens, UniProt Q8NHW5)","competitor, Kinobeads competition, item: RPLP0-like",human cell extract,0.16 µM,baseline: vehicle,relative abundance,1.05
CO[C@H]1C[C@@H]2CC[C@@H](C)[C@@](O)(O2)C(=O)C(=O)N2CCCC[C@H]2C(=O)O[C@H]([C@H](C)C[C@@H]2CC[C@@H](OC(=O)NCCOCCOCCOCCOCCOCCOCCOCCOCCC(=O)N3CCc4cc(Cn5nc(-c6ccc7oc(N)nc7c6)c6c(N)ncnc65)ccc4C3)[C@H](OC)C2)C[C@@H](O)[C@H](C)/C=C(\C)[C@@H](O)[C@@H](OC)C(=O)[C@H](C)C[C@H](C)/C=C/C=C/C=C/1C,,,patients with advanced solid tumours,"intravenous, 10 mg weekly, grade 3 or higher",,anaemia incidence,0%
O=C(c1ccc(Cl)cc1)N1CCN2C(=O)N(OC(=O)N3CCOc4ccccc43)C(=O)C2C1 (stereo not shown),"Acyl-protein thioesterase 2 (Homo sapiens, UniProt O95372)",MS-based ABPP,SW-620 conditioned medium,"10 µM, 1 h, 37 °C","baseline: compound over DMSO, lower = more inhibition",peptide ratio,1 and 1.13
O=C(NCCN1CCC2(CC1)C(=O)NCN2c1cccc(F)c1)c1ccc(F)c(F)c1,BCHE,,,"concentration not given, Triton",,efficacy,-93.2 ± 9.93%
O=C(Nc1cnccc1Cl)N1CCN(Cc2ccc3c(c2)OC(F)(F)O3)CC1,"B1 bradykinin receptor (BDKRB1, Homo sapiens, UniProt P46663)",binding,,"50 µM, with: [3H][des-Arg10]kallidin",,inhibition,2%

# For quick reference, copied from above:
Structure (SMILES),target or system,assay,test system,setting,scale,endpoint,result
CC[C@H](C)[C@H](NC(=O)[C@H](Cc1ccccc1)NC(=O)[C@H](CCC(=O)O)NC(=O)[C@H](CCCNC(=N)N)NC(=O)[C@H](C)NC(=O)[C@H](C)NC(=O)[C@H](CCC(N)=O)NC(=O)[C@H](CCC(=O)O)NC(=O)[C@H](CCC(=O)O)NC(=O)[C@H](CC(C)C)NC(=O)[C@H](Cc1ccc(O)cc1)NC(=O)[C@H](CO)NC(=O)[C@H](CO)NC(=O)[C@@H](NC(=O)[C@H](CC(=O)O)NC(=O)[C@H](CO)NC(=O)[C@@H](NC(=O)[C@H](Cc1ccccc1)NC(=O)[C@@H](NC(=O)CNC(=O)[C@H](CCC(=O)O)NC(=O)[C@H](C)NC(=O)CCc1c[nH]cn1)[C@@H](C)O)[C@@H](C)O)C(C)C)C(=O)N[C@@H](C)C(=O)N[C@@H](Cc1c[nH]c2ccccc12)C(=O)N[C@@H](CC(C)C)C(=O)N[C@H](C(=O)N[C@@H](CCCNC(=N)N)C(=O)NCC(=O)N[C@@H](CCCNC(=N)N)C(=O)N[C@@H](CCCCNC(=O)COCCOCCNC(=O)COCCOCCNC(=O)CC[C@H](NC(=O)CCCCCCCCCCCCCCCCC(=O)O)C(=O)O)C(=O)NCC(=O)NCC(=O)N[C@@H](CO)C(=O)N[C@@H](CCCCNc1c(NCCCCCN(O)C(=O)CCC(=O)NCCCCCN(O)C(=O)CCC(=O)NCCCCCN(O)C(C)=O)c(=O)c1=O)C(=O)O)C(C)C [zirconium-89 labelled],,gamma counting,"rat, skin of neck","intravenous, 3 nmol/kg, 24 h",,tissue uptake,0.31 %ID/g
C[C@@H](O)[C@@H](CO)NC(=O)[C@@H](CCCNC(=N)N)NC(=O)[C@@H]1CCCN1C(=O)[C@@H]1CSSC[C@H](NC(=O)[C@H](Cc2ccccc2)NC(=O)CN2CCN(CC(=O)O)CCN(CC(=O)O)CCN(CC(=O)O)CC2)C(=O)N[C@@H](Cc2ccc(O)cc2)C(=O)N[C@@H](Cc2ccccc2)C(=O)N[C@@H](CCC(N)=O)C(=O)N[C@@H](CC(N)=O)C(=O)N1 [gallium-68 labelled],,,"Wistar rat, adrenals","intravenous, 8 MBq, 30 min, group mean",,tissue uptake,0.45 %ID/g
